{"data": "Experimental data from different studies", "Ahr": "Aryl hydrocarbon receptor (Ahr, Rattus norvegicus, UniProt P41738)", "note": "Lines come from different studies, so protocols differ. Several values in a cell are separate wells, animals, samples, runs or records. ± marks the error that the study gave.", "chain of UniProt P41738 (whole entry, looked up)": "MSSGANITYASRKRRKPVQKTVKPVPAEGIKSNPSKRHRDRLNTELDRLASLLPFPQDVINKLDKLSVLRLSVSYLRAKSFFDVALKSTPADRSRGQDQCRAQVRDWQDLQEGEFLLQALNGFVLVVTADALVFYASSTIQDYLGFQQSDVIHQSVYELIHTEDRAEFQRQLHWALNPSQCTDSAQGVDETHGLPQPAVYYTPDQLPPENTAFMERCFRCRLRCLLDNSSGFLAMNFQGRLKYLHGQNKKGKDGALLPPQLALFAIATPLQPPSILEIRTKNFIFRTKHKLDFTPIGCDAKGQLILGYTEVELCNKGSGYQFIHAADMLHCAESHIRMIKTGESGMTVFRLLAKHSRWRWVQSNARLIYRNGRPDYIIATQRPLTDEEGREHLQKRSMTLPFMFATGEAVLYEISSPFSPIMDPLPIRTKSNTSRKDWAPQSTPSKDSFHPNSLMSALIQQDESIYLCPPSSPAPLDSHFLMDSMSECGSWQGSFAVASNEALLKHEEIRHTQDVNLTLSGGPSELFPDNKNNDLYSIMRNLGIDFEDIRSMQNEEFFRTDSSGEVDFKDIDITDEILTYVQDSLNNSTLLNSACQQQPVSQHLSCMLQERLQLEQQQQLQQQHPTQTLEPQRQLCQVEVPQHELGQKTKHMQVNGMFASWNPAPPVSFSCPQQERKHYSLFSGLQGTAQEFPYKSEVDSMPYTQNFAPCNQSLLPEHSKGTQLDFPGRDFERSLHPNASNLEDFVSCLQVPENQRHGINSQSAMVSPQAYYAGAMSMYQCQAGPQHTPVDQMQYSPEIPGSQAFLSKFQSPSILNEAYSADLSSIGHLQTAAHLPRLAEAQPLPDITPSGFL", "chain of UniProt Q8IW41 (whole entry, looked up)": "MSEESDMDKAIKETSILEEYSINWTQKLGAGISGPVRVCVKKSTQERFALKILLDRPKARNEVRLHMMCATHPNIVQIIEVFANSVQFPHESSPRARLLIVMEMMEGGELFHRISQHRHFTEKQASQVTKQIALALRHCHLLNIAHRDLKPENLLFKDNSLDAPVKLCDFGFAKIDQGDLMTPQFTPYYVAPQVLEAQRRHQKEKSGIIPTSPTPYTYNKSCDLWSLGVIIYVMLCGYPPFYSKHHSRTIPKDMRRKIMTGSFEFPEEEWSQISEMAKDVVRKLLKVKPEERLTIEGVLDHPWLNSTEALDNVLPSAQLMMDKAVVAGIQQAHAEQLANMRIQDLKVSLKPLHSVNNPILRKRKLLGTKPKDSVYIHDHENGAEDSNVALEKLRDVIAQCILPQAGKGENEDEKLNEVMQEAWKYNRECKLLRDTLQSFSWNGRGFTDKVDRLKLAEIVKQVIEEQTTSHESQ", "chain of UniProt Q15722 (whole entry, looked up)": "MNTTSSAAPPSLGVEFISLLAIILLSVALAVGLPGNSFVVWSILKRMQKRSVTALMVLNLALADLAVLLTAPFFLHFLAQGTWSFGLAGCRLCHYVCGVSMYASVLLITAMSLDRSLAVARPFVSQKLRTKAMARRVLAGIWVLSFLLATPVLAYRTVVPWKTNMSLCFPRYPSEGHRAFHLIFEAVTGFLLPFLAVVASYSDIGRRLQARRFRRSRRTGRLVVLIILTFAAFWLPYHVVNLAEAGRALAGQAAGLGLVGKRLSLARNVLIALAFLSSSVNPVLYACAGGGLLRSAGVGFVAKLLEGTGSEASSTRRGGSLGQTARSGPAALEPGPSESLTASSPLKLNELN", "chain of UniProt Q14994 (whole entry, looked up)": "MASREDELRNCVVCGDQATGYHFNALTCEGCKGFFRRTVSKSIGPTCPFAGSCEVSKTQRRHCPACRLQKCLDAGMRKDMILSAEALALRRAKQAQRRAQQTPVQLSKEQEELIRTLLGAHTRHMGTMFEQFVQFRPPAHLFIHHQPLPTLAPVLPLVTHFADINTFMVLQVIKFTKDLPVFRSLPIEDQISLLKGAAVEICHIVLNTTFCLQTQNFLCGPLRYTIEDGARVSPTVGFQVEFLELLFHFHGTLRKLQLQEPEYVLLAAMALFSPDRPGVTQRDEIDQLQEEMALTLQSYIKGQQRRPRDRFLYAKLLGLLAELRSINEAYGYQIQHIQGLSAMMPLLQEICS", "chain of UniProt P43115 (whole entry, looked up)": "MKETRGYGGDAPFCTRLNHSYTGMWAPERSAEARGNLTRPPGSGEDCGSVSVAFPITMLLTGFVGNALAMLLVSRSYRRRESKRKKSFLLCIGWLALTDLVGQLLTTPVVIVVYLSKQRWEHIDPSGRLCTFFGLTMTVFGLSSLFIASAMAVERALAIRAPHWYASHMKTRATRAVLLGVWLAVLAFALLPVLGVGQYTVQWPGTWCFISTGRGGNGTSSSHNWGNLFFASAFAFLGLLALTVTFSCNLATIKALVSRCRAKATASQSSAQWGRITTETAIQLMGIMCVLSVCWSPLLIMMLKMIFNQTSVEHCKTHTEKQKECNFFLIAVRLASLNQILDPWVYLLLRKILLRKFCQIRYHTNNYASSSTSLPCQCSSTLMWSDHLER", "chain of UniProt P51170 (whole entry, looked up)": "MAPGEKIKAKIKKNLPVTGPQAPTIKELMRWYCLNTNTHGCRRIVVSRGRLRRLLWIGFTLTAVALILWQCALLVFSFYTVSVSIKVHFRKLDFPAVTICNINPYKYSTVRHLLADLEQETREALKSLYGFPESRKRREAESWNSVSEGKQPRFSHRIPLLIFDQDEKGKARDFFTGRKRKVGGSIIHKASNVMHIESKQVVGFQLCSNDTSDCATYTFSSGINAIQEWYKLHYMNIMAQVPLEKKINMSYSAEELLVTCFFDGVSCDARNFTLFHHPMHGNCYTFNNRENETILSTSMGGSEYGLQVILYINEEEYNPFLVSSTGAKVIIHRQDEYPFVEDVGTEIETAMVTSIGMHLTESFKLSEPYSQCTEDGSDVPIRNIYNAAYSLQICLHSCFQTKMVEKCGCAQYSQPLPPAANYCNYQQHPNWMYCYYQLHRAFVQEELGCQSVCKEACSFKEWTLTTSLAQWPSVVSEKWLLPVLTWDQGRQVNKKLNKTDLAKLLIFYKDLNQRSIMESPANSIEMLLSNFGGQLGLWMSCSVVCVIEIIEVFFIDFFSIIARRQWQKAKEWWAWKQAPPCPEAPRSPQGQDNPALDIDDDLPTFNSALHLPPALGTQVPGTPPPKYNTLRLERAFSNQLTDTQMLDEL", "chain of UniProt P19643 (whole entry, looked up)": "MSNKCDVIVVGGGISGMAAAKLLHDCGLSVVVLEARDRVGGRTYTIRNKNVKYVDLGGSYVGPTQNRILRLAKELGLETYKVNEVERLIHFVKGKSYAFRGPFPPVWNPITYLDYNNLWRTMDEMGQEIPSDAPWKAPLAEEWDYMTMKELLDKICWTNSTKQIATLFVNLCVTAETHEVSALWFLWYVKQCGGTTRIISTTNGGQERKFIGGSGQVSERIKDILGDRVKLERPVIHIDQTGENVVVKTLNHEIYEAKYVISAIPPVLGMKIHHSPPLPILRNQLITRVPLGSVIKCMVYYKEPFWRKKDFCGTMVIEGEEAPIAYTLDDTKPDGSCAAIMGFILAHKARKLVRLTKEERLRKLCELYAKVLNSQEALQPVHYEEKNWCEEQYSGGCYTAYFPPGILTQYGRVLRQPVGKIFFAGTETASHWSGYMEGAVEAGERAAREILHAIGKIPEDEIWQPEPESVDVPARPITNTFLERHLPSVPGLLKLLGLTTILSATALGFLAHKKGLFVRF", "chain of UniProt P28564 (whole entry, looked up)": "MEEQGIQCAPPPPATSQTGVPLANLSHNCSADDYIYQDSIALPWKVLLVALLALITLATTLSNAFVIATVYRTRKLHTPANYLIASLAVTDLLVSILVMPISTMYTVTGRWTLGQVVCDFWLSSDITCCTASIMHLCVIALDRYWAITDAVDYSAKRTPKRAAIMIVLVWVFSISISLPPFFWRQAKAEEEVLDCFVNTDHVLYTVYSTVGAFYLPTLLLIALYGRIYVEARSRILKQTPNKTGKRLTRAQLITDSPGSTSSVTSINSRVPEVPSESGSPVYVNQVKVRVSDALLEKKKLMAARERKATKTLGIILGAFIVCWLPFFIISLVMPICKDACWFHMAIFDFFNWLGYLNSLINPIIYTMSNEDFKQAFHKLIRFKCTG", "chain of UniProt P42667 (whole entry, looked up)": "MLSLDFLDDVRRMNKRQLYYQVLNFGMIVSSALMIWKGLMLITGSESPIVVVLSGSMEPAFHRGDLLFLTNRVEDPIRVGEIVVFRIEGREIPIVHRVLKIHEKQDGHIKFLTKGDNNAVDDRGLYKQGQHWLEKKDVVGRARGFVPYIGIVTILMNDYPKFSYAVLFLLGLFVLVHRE", "chain of UniProt P34995 (whole entry, looked up)": "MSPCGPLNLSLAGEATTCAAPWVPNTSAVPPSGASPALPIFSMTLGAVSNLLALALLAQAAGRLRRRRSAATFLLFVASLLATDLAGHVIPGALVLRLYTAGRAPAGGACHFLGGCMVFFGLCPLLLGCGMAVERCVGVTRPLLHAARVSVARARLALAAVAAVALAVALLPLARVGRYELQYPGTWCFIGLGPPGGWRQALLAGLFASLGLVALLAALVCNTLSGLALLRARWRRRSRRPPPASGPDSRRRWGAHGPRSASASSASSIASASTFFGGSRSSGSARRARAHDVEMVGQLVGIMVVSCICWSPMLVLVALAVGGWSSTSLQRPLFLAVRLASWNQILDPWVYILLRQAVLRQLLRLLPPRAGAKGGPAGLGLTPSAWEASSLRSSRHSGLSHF", "chain of UniProt P62136 (whole entry, unmodified, looked up)": "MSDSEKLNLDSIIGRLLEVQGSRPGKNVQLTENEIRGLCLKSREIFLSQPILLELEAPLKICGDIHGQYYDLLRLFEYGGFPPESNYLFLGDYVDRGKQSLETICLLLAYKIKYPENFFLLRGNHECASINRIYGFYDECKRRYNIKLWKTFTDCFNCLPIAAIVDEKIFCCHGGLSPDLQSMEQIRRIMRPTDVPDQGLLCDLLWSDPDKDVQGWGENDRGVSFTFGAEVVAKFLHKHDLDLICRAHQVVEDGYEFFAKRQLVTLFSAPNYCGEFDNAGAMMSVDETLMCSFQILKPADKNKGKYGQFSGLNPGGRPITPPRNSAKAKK"}
{"Structure (SMILES)": "[2H]c1c([2H])c([C@]2([2H])CCCN2C(=O)C(C)(C)Oc2ccc3cn[nH]c3c2)c([2H])c([2H])c1C([2H])([2H])[2H]", "target": "Serine/threonine-protein kinase WNK1 (WNK1, Homo sapiens, UniProt Q9H4A3)", "test": "KINOMEscan", "conditions": "1 µM", "scale": "reference: DMSO control", "quantity": "remaining binding", "value": "100%"}
{"Structure (SMILES)": "COc1ncccc1-c1cnn2ccc(N3CCN(C(=O)OC(C)C)CC3)nc12", "target": "Cyclin-dependent kinase 19 (CDK19, Homo sapiens, UniProt Q9BWU1)", "test": "KINOMEscan binding", "conditions": "1 µM", "scale": "reference: untreated control", "quantity": "remaining binding", "value": "60%"}
{"Structure (SMILES)": "CCCCCCCCCCCCCCCC[N+](C)(C)C.[Br-]", "target": "Sodium channel protein type 4 alpha, BTX-activated (Oryctolagus cuniculus, UniProt G1SLL9)", "test system": "rabbit", "quantity": "mean closed time", "value": "167 ms and 159 ms"}
{"Structure (SMILES)": "COc1cc(N)c(Cl)cc1C(=O)NC1CN2CCC1CC2 (stereo not drawn)", "target": "G-protein coupled receptor 83 (GPR83, Homo sapiens, UniProt Q9NYM4)", "test": "β-arrestin recruitment, TANGO luminescence, measured: GPR83", "conditions": "concentration not given", "scale": "reference: basal luminescence", "quantity": "log2 fold change", "value": 0.04}
{"Structure (SMILES)": "CC[n+]1c(-c2ccccc2)c2cc(N)ccc2c2ccc(N)cc21", "target": "DNA cross-link repair 1A protein (DCLRE1A, Homo sapiens, UniProt Q6PJP8)", "test": "exonuclease activity, inhibitor, fluorescence HTS", "conditions": "10 µM, 80 min, added: 8 nM 5P-FQ substrate", "quantity": "remaining activity", "value": "36.6%"}
{"Structure (SMILES)": "O=C(Nc1cccnn1)N1CCC(=Cc2cccc(Oc3ccc(C(F)(F)F)cn3)c2)CC1", "target": "Leukotriene B4 receptor 1 (LTB4R, Homo sapiens, UniProt Q15722)", "test": "radioligand binding", "conditions": "50 µM, added: [3H]LTB4", "quantity": "inhibition of binding", "value": "35%"}
{"Structure (SMILES)": "CC(C)C[C@H](NC(=O)[C@@H]1CCCN1C(=O)[C@H](CCCNC(=N)N)NC(=O)[C@H](CC(C)C)NC(=O)[C@H](CCCNC(=N)N)NC(=O)[C@H](CC(=O)O)NC(=O)[C@H](Cc1ccc(O)cc1)NC(=O)[C@H](CC(=O)O)NC(=O)[C@H](CCC(=O)O)NC(=O)[C@H](CCC(N)=O)NC(=O)CN)C(=O)O", "target": "Epithelial sodium channel subunit gamma (Homo sapiens, UniProt P51170)", "test": "binding, bio-layer interferometry", "quantity": "kon", "value": "692000 M⁻¹ s⁻¹"}
{"Structure (SMILES)": "COc1cc(Nc2ncc(F)c(Nc3ccc4c(n3)NC(=O)C(C)(C)O4)n2)cc(OC)c1OC", "target": "Rhodopsin kinase GRK1 (GRK1, Homo sapiens, UniProt Q15835)", "test": "KINOMEscan", "conditions": "10 µM", "quantity": "inhibition", "value": "57%"}
{"Structure (SMILES)": "O=C(/C=C\\c1ccccc1)O[C@H]1[C@@H]2C=CO[C@@H](O[C@@H]3O[C@H](CO)[C@@H](O)[C@H](O)[C@H]3O)[C@@H]2[C@@]2(CO)O[C@@H]12", "target": "Amine oxidase [flavin-containing] B (Maob, Rattus norvegicus, UniProt P19643)", "test": "enzyme activity", "test system": "PC-12", "conditions": "100 µM, added: 6-OHDA 300 µM", "scale": "reference: 6-OHDA model cells", "quantity": "activity decrease", "value": "27%"}
{"Structure (SMILES)": "CC[C@H](C)[C@H](NC(=O)CNC(=O)[C@@H](N)CCCCN)C(=O)N[C@@H](CC(C)C)C(=O)N[C@@H](CCCCN)C(=O)N[C@@H](CCCNC(=N)N)C(=O)N[C@@H](CCC(=O)O)C(=O)N[C@@H](CCCCN)C(=O)N[C@@H](CCCNC(=N)N)C(=O)N[C@@H](CC(C)C)C(=O)N[C@@H](CCCNC(=N)N)C(=O)N[C@@H](CCCNC(=N)N)C(=O)N[C@@H](CCCCN)C(=O)N[C@@H](CC(N)=O)C(=O)N[C@H](C(=O)N[C@@H](Cc1c[nH]cn1)C(=O)N[C@@H](Cc1c[nH]c2ccccc12)C(=O)N1CCC[C@H]1C(=O)N[C@@H](CCC(=O)O)C(=O)N[C@@H](CCC(=O)O)C(=O)NCC(=O)N[C@@H](CCCCN)C(=O)N[C@@H](CC(C)C)C(=O)N[C@@H](CCCNC(=N)N)C(=O)N[C@@H](CCC(=O)O)C(=O)N[C@@H](Cc1ccccc1)C(=O)N[C@@H](Cc1ccccc1)C(=O)N[C@@H](Cc1ccccc1)C(=O)N[C@@H](Cc1ccccc1)C(=O)N[C@@H](CCC(=O)O)C(=O)N[C@@H](CC(C)C)C(=O)N[C@@H](CC(=O)O)C(=O)N[C@@H](CCC(=O)O)C(=O)N[C@@H](C)C(=O)N[C@@H](CCC(=O)O)C(=O)N[C@@H](CCCNC(=N)N)C(=O)N[C@H](C(=O)N[C@@H](CC(N)=O)C(=O)N[C@H](C(=O)O)C(C)C)C(C)C)C(C)C", "target": "Serine/threonine-protein phosphatase PP1-alpha catalytic subunit (PPP1CA, Homo sapiens, UniProt P62136)", "test": "binding, isothermal titration calorimetry", "conditions": "concentration not given, 25 °C, PP1α residues 7-330", "quantity": "entropy change ΔS", "value": "-57.3 ± 3.7 cal/mol/K"}
{"Structure (SMILES)": "Nc1ncc(-c2nc(N3CCOCC3)nc(N3CCOCC3)n2)c(C(F)F)n1", "target": "Serine/threonine-protein kinase Nek10 (NEK10, Homo sapiens, UniProt Q6ZWH5)", "test": "KINOMEscan", "conditions": "10 µM", "quantity": "remaining binding", "value": "66%"}
{"Structure (SMILES)": "O=C(O)COP(=O)(O)O", "target": "TPI1 (Saccharomyces cerevisiae, UniProt P00942, Y208S)", "test": "enzyme activity, competitive inhibitor, GPDH/NADH-coupled", "conditions": "pH 8.9, 25 °C, ionic strength 0.1 NaCl, added: glyceraldehyde 3-phosphate substrate", "scale": "reference: mutant over wild type", "quantity": "Ki ratio", "value": 28}
{"Structure (SMILES)": "C[C@H]1CN(c2n[nH]c3nc(N[C@H]4CC[C@H](NS(=O)(=O)CCC(F)(F)F)CC4)ncc23)CCO1", "target": "Splicing factor 3B subunit 3 (Homo sapiens, UniProt Q15393)", "test": "Kinobeads competition, measured: SF3B3", "conditions": "20 µM, unit not given", "scale": "reference: vehicle", "quantity": "remaining binding", "value": 1.21}
{"Structure (SMILES)": "CN1CCN(c2cc(-c3ccncc3)c(-c3ccc4ccccc4c3)nn2)CC1", "target": "Prostaglandin E2 receptor EP1 subtype (PTGER1, Homo sapiens, UniProt P34995)", "conditions": "10 µM", "quantity": "inhibition", "value": "13.2%"}
{"Structure (SMILES)": "CN(C(=O)n1cnc(-c2ccc[n+]([O-])c2)c1)C1CCCCC1", "target": "MAP kinase-activated protein kinase 5 (MAPKAPK5, Homo sapiens, UniProt Q8IW41)", "test": "kinase activity, inhibitor", "conditions": "10 µM, added: PRAK substrate peptide", "quantity": "inhibition", "value": "5%"}
{"Structure (SMILES)": "CCN(CC)CCCC[C@H](NC(=O)[C@H](CC(C)C)NC(=O)[C@H](C)NC(=O)[C@H](Cc1ccccc1)NC(=O)c1ccc(C(C)(C)C)cc1)C(=O)N[C@@H](CO)C(=O)OC", "target": "5-hydroxytryptamine receptor 1B (Htr1b, Rattus norvegicus, UniProt P28564)", "test": "radioligand binding", "conditions": "10 µM", "scale": "reference: control", "quantity": "specific binding", "value": "111%"}
{"Structure (SMILES)": "CN(CC(=O)O)C(=N)NP(=O)(O)O", "target": "Creatine kinase U-type, mitochondrial (CKMT1A, Homo sapiens, UniProt P12532, D359N)", "test": "substrate, Kinase-Glo luminescence", "conditions": "pH 7.0, reverse reaction, D321N mutant, added: second substrate in excess", "quantity": "kcat", "value": "12 ± 5 s⁻¹"}
{"Structure (SMILES)": "CO/N=C1\\C[C@]2(C[C@@H]3C[C@@H](C/C=C(\\C)C[C@@H](C)/C=C/C=C4\\CO[C@@H]5[C@H](O)C(C)=C[C@@H](C(=O)O3)[C@]45O)O2)O[C@H](/C(C)=C/C(C)C)[C@H]1C", "target": "Nuclear receptor subfamily 1 group I member 3 (Homo sapiens, UniProt Q14994)", "test system": "cells", "conditions": "concentration not given", "quantity": "activity", "value": "inactive"}
{"Structure (SMILES)": "O=C(Nc1cnccc1Cl)N1CCN(Cc2ccc3c(c2)OC(F)(F)O3)CC1", "target": "Prostaglandin E2 receptor EP3 subtype (PTGER3, Homo sapiens, UniProt P43115)", "test": "radioligand binding, inhibitor", "conditions": "50 µM, human, added: [3H]prostaglandin E2", "quantity": "inhibition", "value": "16%"}
{"Structure (SMILES)": "COc1ccc(N2C(=O)N(c3c(C)cccc3Cl)Cc3cnc(Nc4ccc(C5CCN(C)CC5)cc4OC)nc32)nc1", "target": "Angiopoietin-1 receptor (TEK, Homo sapiens, UniProt Q02763)", "test": "kinase activity, inhibitor", "conditions": "0.5 µM, kinase TIE2", "quantity": "inhibition", "value": "22%"}
{"Structure (SMILES)": "O=C(NO)[C@H]1COC(c2ccc(OC(F)(F)F)c(Cl)c2)=N1", "target": "UDP-3-O-acyl-N-acetylglucosamine deacetylase (Pseudomonas aeruginosa, UniProt P47205, C40S)", "test": "bio-layer interferometry", "conditions": "298 K", "quantity": "koff", "value": "0.0452 s⁻¹"}
{"Structure (SMILES)": "Cn1c(N)nc2c3cccnc3ccc21", "target": "Ahr", "test": "reporter gene, activator", "scale": "reference: baseline cytotoxicity over effect concentration", "quantity": "specificity ratio", "value": 427}
{"Structure (SMILES)": "C[C@H]1CCC/C=C/[C@@H]2C[C@H](O)C[C@H]2[C@H](O)/C=C/C(=O)O1", "target": "Protein transport protein Sec61 subunit alpha isoform 1 (Homo sapiens, UniProt P61619)", "test": "Sec61-dependent translocation, inhibitor, measured: CD4 signal peptide-FLuc reporter", "test system": "HEK293", "conditions": "concentration not given", "scale": "reference: mock", "quantity": "FLuc/RLuc ratio", "value": 0.976}
{"Structure (SMILES)": "CC(C)[C@@H]1NC(=O)[C@H](C)OC(=O)[C@@H](C(C)C)NC(=O)[C@@H](C(C)C)OC(=O)[C@H](C(C)C)NC(=O)[C@H](C)OC(=O)[C@@H](C(C)C)NC(=O)[C@@H](C(C)C)OC(=O)[C@H](C(C)C)NC(=O)[C@H](C)OC(=O)[C@@H](C(C)C)NC(=O)[C@@H](C(C)C)OC1=O", "target": "Metalloendopeptidase OMA1, mitochondrial (OMA1, Homo sapiens, UniProt Q96E52)", "test": "Western blot, measured: Luke-S1", "test system": "HEK293T, control siRNA", "conditions": "concentration not given", "quantity": "protein level", "value": "7.2 ± 4.4%"}
{"Structure (SMILES)": "CN(C(=O)n1cnc(-c2ccc[n+]([O-])c2)c1)C1CCCCC1", "target": "Signal peptidase complex catalytic subunit SEC11A (Sec11a, Rattus norvegicus, UniProt P42667)", "test": "enzyme activity, ABPP", "test system": "rat, brain", "conditions": "oral, 30 mg/kg/day, 28 days", "scale": "reference: vehicle", "quantity": "fold change", "value": -16.5}
{"Structure (SMILES)": "CNC(=O)Oc1ccccc1OC(C)C", "target": "uncharacterized protein (Anopheles coluzzii, UniProt A0A6E8VQK1)", "test": "enzyme activity, inhibitor", "test system": "Sf9 cell homogenate", "conditions": "0.04651 µM, 0.1667 h, added: α-naphthyl acetate substrate", "scale": "reference: no inhibitor", "quantity": "remaining activity", "value": "95.9%"}
{"Structure (SMILES)": "c1ccc2c(c1)cc1ccc3cccc4ccc2c1c34", "target": "Ahr", "test": "agonist, CALUX reporter", "test system": "H4IIE", "conditions": "1.26e-05 µg/mL", "quantity": "agonist response", "value": "16.7%"}
{"note": "Some of these lines once more:"}
{"Structure (SMILES)": "COc1ccc(N2C(=O)N(c3c(C)cccc3Cl)Cc3cnc(Nc4ccc(C5CCN(C)CC5)cc4OC)nc32)nc1", "target": "Angiopoietin-1 receptor (TEK, Homo sapiens, UniProt Q02763)", "test": "kinase activity, inhibitor", "conditions": "0.5 µM, kinase TIE2", "quantity": "inhibition", "value": "22%"}
{"Structure (SMILES)": "Cn1c(N)nc2c3cccnc3ccc21", "target": "Ahr", "test": "reporter gene, activator", "scale": "reference: baseline cytotoxicity over effect concentration", "quantity": "specificity ratio", "value": 427}
